# Measured values gathered from unrelated publications.
# Lines come from different studies, so protocols differ. Numbers after ± are the reported error.
Structure (SMILES),assay,test system,conditions,solubility
CN(Cc1ccc(C(C)(C)C)cc1)Cc1cccc2ccccc12,,PBS,"pH 7.4, 25 °C, 2% DMSO",10 µM
N#Cc1cc([C@@H]2COCC3(CCOCC3)N2)ccc1F,"shake-flask, LC-HRMS",aqueous buffer,"16 h, pH 6.8",> 750 µM
[2H]c1cc(C)c(NC(=O)c2cnc(Nc3cc(N4CCCCC4)nc(C)n3)s2)c(Cl)c1,,,,< 1 µg/mL
CCOC(=O)N1C[C@@H](C2CCCC2)N[C@@H](c2cccc(Br)c2)C1,"shake-flask, LC-HRMS",aqueous buffer,"16 h, pH 6.8",< 4 µM
COC(=O)c1ccccc1Oc1nc(NC(C)C)nc(NC(C)C)n1,,aqueous buffer,pH 7.4,< 1.48 µg/mL
O=C(Nc1ccc(OC(F)(F)F)cc1)N[C@H]1CC[C@H](Oc2ccc(C(=O)O)cc2)CC1,,simulated gastric fluid (HCl 0.1 N),"pH 1.0, 37 °C, equilibrium",0.015 ± 0.0028 µg/mL
c1ccc(CSc2ncnc3nc[nH]c23)cc1,UV absorbance,culture medium,stock diluted to 0.40 mM,170 µM
NC[C@H](NC(=O)[C@@H](Cc1c[nH]c2ccccc12)NC(=O)OCC1c2ccccc2-c2ccccc21)C(=O)N[C@@H](CCCCNC(=O)CN1CCN(CC(=O)O)CCN(CC(=O)O)CCN(CC(=O)O)CC1)C(N)=O,,aqueous buffer,,≥ 5000 µM
Cc1c(NC(=O)C2CCCN2S(=O)(=O)c2ccccc2)c(=O)n(-c2ccccc2)n1C (stereo not shown),,aqueous buffer,pH 7.4,169 µg/mL
CCOC(=O)N1C[C@@H](c2ccc(O)cc2)N[C@@H](C2CC2)C1,"shake-flask, LC-HRMS",aqueous buffer,"16 h, pH 6.8",> 750 µM
CC(C)Nc1ccnc(Nc2ccccc2-c2ccccc2)n1,,citrate phosphate-buffered saline,"18 h, pH 7.4, 1% DMSO",26.5 ± 1.1 µM
CCOc1ccc2nc(SCC(=O)Nc3c(C)n(C)n(-c4ccccc4)c3=O)sc2c1,,aqueous buffer,pH 7.4,< 3.25 µg/mL
NC(=O)N1c2ccccc2C=Cc2ccccc21,LC-MS,DPBS,18 h,64.3 ± 1.5 µM
CN(Cc1ccc(C2(C(F)(F)F)CC2)cc1)Cc1cccc2ccccc12.Cl,,PBS,"2 h, pH 7.4, 25 °C",3 µM
C#Cc1ccc(CC2=C(C)C(=O)c3ccccc3C2=O)cc1,kinetic absorbance,2% acetonitrile in water,30 min,< 2.5 µM
C[C@@H](O)[C@H](NC(=O)c1ccc(-c2ccccc2)cc1)C(=O)NCC1(C)NC(=O)NC1=O (stereo partly shown),,aqueous buffer,pH 7.4,1370 µg/mL
CS(=O)(=O)c1ncn2c(NCc3c(F)ccc4c3CCO4)ncc(-c3ccc(C4CC4)nc3)c12,,FeSSIF,,< 1 µg/mL
CC(C)(C)c1ccc(CN2CCN(C(c3ccccc3)c3ccc(Cl)cc3)CC2)cc1 (stereo not shown),,PBS,"2 h, pH 7.4, 25 °C, 2% DMSO",2 µM
O=C(Cn1ccc([N+](=O)[O-])n1)N1CCCc2ccccc21,,aqueous buffer,pH 7.4,84 µg/mL
COc1ccc(-c2cc(=O)c3c(OC)cc(OC)cc3o2)cc1,HPLC,ethanol:butylene glycol 100:0,,12970 ± 61 ppm
O=c1c2ccccc2oc2ccccc12,,tricaprin-tricaprylin mixture,"30 °C, tricaprin fraction 0.77",0.0387 mole fraction
N=C(N)NS(=O)(=O)c1ccc(N/C=C2\C(=O)Nc3ccccc32)cc1,,aqueous buffer,pH 7.4,< 1.53 µg/mL
O=[N+]([O-])c1ccc(Nc2ccnc3ccc(-c4ccc(S(=O)(=O)N5CCOCC5)cc4)cc23)cn1,thermodynamic,aqueous medium,,4 µM
COc1cc(OC)c2c(=O)c(OC)c(-c3ccccc3)oc2c1,HPLC,ethanol:butylene glycol 75:25,,2368 ± 20 ppm
COc1cc(C(=O)[O-])cc(COC(=O)N(C)C(=O)c2ccc(N3C(=S)N(c4ccc(C#N)c(C(F)(F)F)c4)C(=O)C3(C)C)cc2F)c1OP(=O)([O-])[O-].[Na+].[Na+].[Na+],"HPLC, saturated solution",simulated gastric fluid,"30 s, pH 1.2",240 µg/mL
COc1cc(OC)c2c(=O)cc(-c3ccccc3)oc2c1,HPLC,ethanol:butylene glycol 25:75,,13140 ± 20 ppm
COCC(C)Nc1ccnc(Nc2cccc(-c3cccnc3)c2)n1 (stereo not shown),,citrate phosphate-buffered saline,"18 h, pH 7.4, 1% DMSO",59.1 ± 3.6 µM
COc1ccc(Nc2ccnc3ccc(-c4ccc(S(=O)(=O)N5CCOCC5)cc4)cc23)cc1Cl,thermodynamic,aqueous medium,,1 µM
COc1cccc2c(NCc3ccccc3)nc(-n3c(N)nc4ccccc43)nc12,,aqueous buffer,pH 6.2,0.09 µg/mL
CC(C)(C)Nc1ccnc(Nc2cccc(-c3cccnc3)c2)n1,,citrate phosphate-buffered saline,"18 h, pH 7.4, 1% DMSO",13.1 ± 3.3 µM
COc1cc(OC)c2c(=O)c(OC)c(-c3ccc(OC)c(OC)c3)oc2c1,HPLC,ethanol:butylene glycol 0:100,,12050 ± 79 ppm
O=C(Nc1cc(F)c(F)c(F)c1)c1ccc(F)c(S(=O)(=O)N2CCC(O)CC2)c1,,phosphate buffer,pH 2.0,61.5 µg/mL
Nc1nc2c(ncn2COCCO)c(=O)[nH]1,,methanol + ethanol,"24 h, 298.2 K, mass fraction 0.8",365 µg/mL
O=C(NCCN1CCCC1)c1cc(-c2ccc(CN3CCOCC3)cc2)nc2ccc(F)cc12,,FeSSIF,"4 h, pH 5.0, 37 °C",> 6490 µM
Cc1cc(C)c(S(=O)(=O)NCc2ccccn2)cc1C,,aqueous buffer,pH 7.4,15.7 µg/mL
CC(C)Nc1ccnc(Nc2cccc(-n3ccnc3)c2)n1,,citrate phosphate-buffered saline,"18 h, pH 7.4, 1% DMSO",51.9 ± 2.9 µM
Cn1cc([C@@H]2COC[C@H](c3ccc(C#N)cc3)N2)cn1,"shake-flask, LC-HRMS",aqueous buffer,"16 h, pH 6.8",> 750 µM
Cc1cc(/C=C/C#N)cc(C)c1Nc1ccnc(Nc2ccc(C#N)cc2)n1,,Labrasol ALF,"24 h, 37 °C",9020 ± 290 µg/mL
O=S(=O)(c1ccc(-c2ccc3nccc(Nc4cccnc4)c3c2)cc1)N1CCOCC1,thermodynamic,aqueous medium,,9 µM
CCOC(=O)N1C[C@@H](C2CCOCC2)N[C@@H](C(C)(C)C)C1,"shake-flask, LC-HRMS",aqueous buffer,"16 h, pH 6.8",> 750 µM
Cn1cncc1[C@@](N)(c1ccc(Cl)cc1)c1ccc2c(c1)c(-c1cccc(Cl)c1)cc(=O)n2C,,simulated gastric fluid,"37 °C, final pH 2.99",2920 ± 141 µg/mL
CCOC(=O)N1C[C@@H](c2ccccc2O)N[C@@H](c2ccc(C(C)(C)C)cc2)C1,"shake-flask, LC-HRMS",aqueous buffer,"16 h, pH 6.8",< 4 µM
COc1ccc(NC(=O)CSc2nnc(-c3ccncc3)[nH]2)cc1,,aqueous buffer,pH 7.4,3.54 µg/mL
c1ccc(-c2cccc(Nc3nccc(NC4CCCCC4)n3)c2)cc1,,citrate phosphate-buffered saline,"18 h, pH 7.4, 1% DMSO",< 0.1 µM
CCOC(=O)N1C[C@@H](C2CCOCC2)N[C@@H](C(CC)CC)C1,"shake-flask, LC-HRMS",aqueous buffer,"16 h, pH 6.8",> 750 µM
COC1=CC(c2ccc[nH]2)=N/C1=C\c1[nH]c(Cc2ccc(OC(F)(F)F)cc2)cc1Cc1ccc(OC(F)(F)F)cc1,,potassium phosphate buffer,"1.5 h, pH 7.4, room temperature",< 3.13 µM
CCOC(=O)N1C[C@@H](c2cc(F)c(O)c(F)c2)N[C@@H](c2ccc(F)c3ccccc23)C1,"shake-flask, LC-HRMS",aqueous buffer,"16 h, pH 6.8",< 4 µM
Clc1nc(SCc2ccccc2)c2[nH]cnc2n1,UV absorbance,culture medium,stock diluted to 0.067 mM,16.5 µM
Cc1[nH]c(/C=C2\N=C(c3ccc[nH]3)C3=C2OCCO3)cc1Cc1ccc(OC(F)(F)F)cc1.Cl,,potassium phosphate buffer,"1.5 h, pH 7.4, room temperature",48.8 µM

# Repeated from above:
Structure (SMILES),assay,test system,conditions,solubility
COc1ccc(-c2cc(=O)c3c(OC)cc(OC)cc3o2)cc1,HPLC,ethanol:butylene glycol 100:0,,12970 ± 61 ppm
O=c1c2ccccc2oc2ccccc12,,tricaprin-tricaprylin mixture,"30 °C, tricaprin fraction 0.77",0.0387 mole fraction
N=C(N)NS(=O)(=O)c1ccc(N/C=C2\C(=O)Nc3ccccc32)cc1,,aqueous buffer,pH 7.4,< 1.53 µg/mL
O=[N+]([O-])c1ccc(Nc2ccnc3ccc(-c4ccc(S(=O)(=O)N5CCOCC5)cc4)cc23)cn1,thermodynamic,aqueous medium,,4 µM
